# Assay results pooled from the literature.
# Values joined by “and” are separate records of one study, mostly repeats; a detail may differ. ± marks the error that the study gave.
# Chain of UniProt Q9Y6L6 (whole entry, looked up): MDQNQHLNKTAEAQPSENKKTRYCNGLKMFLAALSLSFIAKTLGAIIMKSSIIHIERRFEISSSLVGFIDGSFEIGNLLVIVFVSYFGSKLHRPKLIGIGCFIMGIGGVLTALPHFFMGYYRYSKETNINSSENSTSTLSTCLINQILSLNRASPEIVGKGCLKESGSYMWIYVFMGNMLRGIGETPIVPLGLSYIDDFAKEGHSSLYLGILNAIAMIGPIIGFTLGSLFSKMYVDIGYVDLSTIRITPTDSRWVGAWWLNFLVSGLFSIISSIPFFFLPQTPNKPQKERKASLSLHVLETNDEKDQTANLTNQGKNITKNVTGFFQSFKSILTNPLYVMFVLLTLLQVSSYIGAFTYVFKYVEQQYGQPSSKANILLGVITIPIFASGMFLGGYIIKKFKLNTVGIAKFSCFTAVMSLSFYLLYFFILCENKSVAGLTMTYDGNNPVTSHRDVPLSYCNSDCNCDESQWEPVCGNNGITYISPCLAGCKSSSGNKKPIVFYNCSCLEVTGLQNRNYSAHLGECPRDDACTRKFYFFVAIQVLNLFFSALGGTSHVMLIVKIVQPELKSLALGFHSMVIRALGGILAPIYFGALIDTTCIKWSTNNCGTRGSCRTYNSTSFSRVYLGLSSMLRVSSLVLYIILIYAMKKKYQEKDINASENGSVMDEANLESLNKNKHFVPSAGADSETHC
# Chain of UniProt P61073 (whole entry, looked up): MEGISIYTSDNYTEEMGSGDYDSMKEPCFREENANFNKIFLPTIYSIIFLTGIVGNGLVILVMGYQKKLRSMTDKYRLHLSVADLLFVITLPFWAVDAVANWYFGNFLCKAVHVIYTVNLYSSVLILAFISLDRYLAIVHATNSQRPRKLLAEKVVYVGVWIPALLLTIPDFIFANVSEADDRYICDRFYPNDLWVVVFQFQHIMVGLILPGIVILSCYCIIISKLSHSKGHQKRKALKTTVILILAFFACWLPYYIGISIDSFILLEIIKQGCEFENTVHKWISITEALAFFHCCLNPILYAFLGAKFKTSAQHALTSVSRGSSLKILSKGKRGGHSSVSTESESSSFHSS
Structure (SMILES),tested on,assay,system,setting,quantity,value
CN[C@](C)(C[18F])C(=O)O,MDA-MB-468 tumour model,,"host not given, tumour","1 h, tumour-bearing",tracer uptake,2 %ID/g
O=C(O)CCC(NP(=O)(O)OCCC[C@@H](NC(=O)CCC(NC(=O)CCCCCNC(=O)c1ccc([18F])cc1)C(=O)O)C(=O)O)C(=O)O (some centres unmarked),CWR22Rv1 tumour model,,"host not given, spleen","intravenous, 2 h, tumour-bearing",tracer uptake,0.84 %ID/g
CC[C@H](C)C(=O)N1CCC(NC(=O)Nc2ccc(OC(F)(F)F)c(F)c2)CC1,,,healthy volunteers,"oral, 24 mg single dose",subjects with laryngitis TEAE,0%
CC[C@H](C)[C@H](NC(=O)[C@H](CC(=O)O)NC(=O)[C@@H](NC(=O)[C@@H]1CCCN1C(=O)[C@@H](N)CCCNC(=N)N)[C@@H](C)O)C(=O)N[C@@H](CCCCN)C(=O)N[C@H]1CSSC[C@@H]2NC(=O)[C@H](CCCNC(=N)N)NC(=O)CNC(=O)[C@H](CC(N)=O)NC(=O)[C@H]([C@@H](C)O)NC(=O)[C@H](CCCCN)NC(=O)CNC(=O)[C@H](Cc3ccccc3)NC(=O)[C@H](CCCNC(=N)N)NC(=O)[C@H](CO)NC(=O)[C@H](CCCCN)NC(=O)[C@@H]3CSSC[C@@H](C(=O)N[C@@H](Cc4ccccc4)C(=O)O)NC(=O)[C@H](CC(=O)O)NC(=O)[C@H](CSSC[C@H](NC(=O)[C@H](CCC(N)=O)NC(=O)[C@H](Cc4ccc(O)cc4)NC(=O)[C@H](CO)NC(=O)[C@H](CCC(=O)O)NC(=O)[C@H](CO)NC1=O)C(=O)N[C@@H](Cc1ccccc1)C(=O)N1CCC[C@H]1C(=O)N[C@@H](C(C)C)C(=O)N3)NC(=O)[C@H](Cc1ccccc1)NC(=O)CNC(=O)[C@H](CC(N)=O)NC(=O)[C@H](C(C)C)NC2=O,"KCNH2 (Homo sapiens, UniProt Q12809, S631C)","potassium current, two-electrode voltage clamp",Xenopus laevis oocytes,,Hill coefficient,0.8 ± 0.1
COc1cccc(C2(O)CCCCC2CN(C)C)c1.Cc1ccc(-c2cc(C(F)(F)F)nn2-c2ccc(S(N)(=O)=O)cc2)cc1.Cl (racemic),,,"healthy human, fasted","oral, dose not given",subjects with adverse events,44.1%
N=C(N)c1ccc(-c2ccc(-c3ccco3)o2)nc1,Salmonella typhimurium,"mutagenicity, Ames test",TA1535,"5 or 10 µM, 48 h, pH 7.4, lower tested concentration, with: rat liver S9 mix",revertant colonies,14.3 ± 2.1 colonies/plate
O=C(O)CC1C2CCCN3CCCC(CN1S(=O)(=O)c1ccc(Cl)cc1)C23 (centres unmarked),HEK293T,,,,CC50,> 200 µM
CCOC(=O)CC[C@@H](NC(=O)c1ccc(N(C)Cc2ccc3[nH]c(C)nc(=O)c3c2)s1)C(=O)OCC,Mycobacterium tuberculosis,,H37Rv,"10 µM, 24 h",metabolized share of uptake,~93.6%
[64Cu+2].c1ccc(CNCc2ccc(CN3CCCNCCNCCCNCC3)cc2)nc1,CXCR4,,"NOD/SCID mouse, U87 xenografts, U87 tumour",90 min,tissue uptake,5.35 ± 1.15 %ID/g
COc1cc(C(=O)NCCOCCOCCOCCNC(=O)c2ccc([18F])nc2)ccc1NC(=O)C1NC(CC(C)(C)C)C(C#N)(c2ccc(Cl)cc2F)C1c1cccc(Cl)c1F (centres unmarked),HepG2 tumour model,,"host not given, liver","4 h, tumour-bearing",tracer uptake,1.24 %ID/g
O=C(O)CCCC1C2CCCN3CCCC(CN1C(=O)c1ccc(Cl)cc1)C23 (centres unmarked),HEK293T,,,,CC50,200 µM
N[C@]1(c2ccccc2Cl)CCC[C@H](O)C1=O,,,Wistar rat,"intravenous, 20 mg/kg, 20 min",brain to plasma ratio,3.5
CC(CCC(=O)NCC(=O)O)C1CCC2C3C(O)CC4CC(OC5OC(C(=O)O)C(O)C(O)C5O)CCC4(C)C3CCC12C (centres unmarked),"SLCO1B1 (Homo sapiens, UniProt Q9Y6L6)","transporter uptake, inhibitor",,,IC50,16 µM and ≤ 28 µM
CN1C(=O)[C@@H](Cc2ccc(O)cc2)NC(=O)CNC(=O)[C@H](Cc2ccc3ccccc3c2)NC(=O)[C@H](CCCNC(=N)N)NC(=O)[C@H]1CCCNC(=O)c1ccc(CNC(=O)CN2CCN(CC(=O)O)CCN(CC(=O)O)CCN(CC(=O)O)CC2)cc1 [gallium-68 labelled],"CXCR4 (Homo sapiens, UniProt P61073)",PET imaging,"human, bladder",,SUVmax,71
COc1ccc(CNc2nc(N3CCC[C@H]3CO)ncc2C(=O)NN)cc1Cl,Salmonella typhimurium,,TA97a,"250 µg/plate, 48 h, with: rat liver S9",revertant count,178 ± 14
CC[C@H](C)[C@H](NC(=O)[C@H](CC(=O)O)NC(=O)[C@@H](NC(=O)[C@@H]1CCCN1C(=O)[C@@H](N)CCCNC(=N)N)[C@@H](C)O)C(=O)N[C@@H](CCCCN)C(=O)N[C@H]1CSSC[C@@H]2NC(=O)[C@H](CCCCNC(=O)CCc3cn(CCOCCOCCOCCOCCOCCNC(=O)CCCCC[N+]4=C(/C=C/C=C/C=C5/N(C)c6ccccc6C5(C)C)C(C)(C)c5ccccc54)nn3)NC(=O)CNC(=O)[C@H](CC(N)=O)NC(=O)[C@H]([C@@H](C)O)NC(=O)[C@H](CCCCN)NC(=O)CNC(=O)[C@H](Cc3ccccc3)NC(=O)[C@H](CCCNC(=N)N)NC(=O)[C@H](CO)NC(=O)[C@H](CCCCN)NC(=O)[C@@H]3CSSC[C@@H](C(=O)N[C@@H](Cc4ccccc4)C(=O)O)NC(=O)[C@H](CC(=O)O)NC(=O)[C@H](CSSC[C@H](NC(=O)[C@H](CCC(N)=O)NC(=O)[C@H](Cc4ccc(O)cc4)NC(=O)[C@H](CO)NC(=O)[C@H](CCC(=O)O)NC(=O)[C@H](CO)NC1=O)C(=O)N[C@@H](Cc1ccccc1)C(=O)N1CCC[C@H]1C(=O)N[C@@H](C(C)C)C(=O)N3)NC(=O)[C@H](Cc1ccccc1)NC(=O)CNC(=O)[C@H](CC(N)=O)NC(=O)[C@H](C(C)C)NC2=O,"KCNH2 (Homo sapiens, UniProt Q12809)","ion current, inhibitor, two-electrode voltage clamp",,"pH 7.4, oocytes",IC50,0.0805 µM
CN(C)CC1CCCCC1(O)c1cccc(O)c1 (centres unmarked),P-glycoprotein,,Caco-2 TC7,"1 µM, 3 h, pH 7.4, with: cyclosporin A 10 µM",Papp A to B,18.2 ± 0.5 ×10⁻⁶ cm/s
CCC(=O)N(C)c1ccc(Cl)c(Cl)c1,Salmonella typhimurium,Ames test,TA1537,"5.00 mg/plate, with rat liver S9",revertants,0 revertants/plate
CCC1CN2CCC3(O)C(=Nc4cccc(OC)c43)C2CC1C(=COC)C(=O)OC (centres unmarked),"UDP-glucuronosyltransferase, rat","4-MU glucuronidation, inhibitor",rat liver microsomes,"30 min, pH 7.4, with: 4-methylumbelliferone 100 µM",IC50,> 100 µM
CC(C)[C@H](NC(=O)CNC(=O)[C@H](CCC(N)=O)NC(=O)[C@H](C)N)C(=O)O,,at least one event,human,"90 mg/kg/h, continuous infusion",subjects with adverse events,66.7%
"CCCCCc1cc(O)c2c(c1)OC(C)(C)C1CCC(C)=CC21 (single isomer, unassigned; (-))",,,HEK293 microsome incubation mixture,,unbound fraction,0.042 ± 0.003
COc1ccc(CNc2nc(N3CCC[C@H]3CO)ncc2C(=O)NNC(=O)c2cnc(N3CCC[C@H]3CO)nc2NCc2ccc(OC)c(Cl)c2)cc1Cl,Salmonella typhimurium,,TA1535,"1000 µg/plate, 48 h",revertant count,41 ± 2
O=C(O)CCC(NP(=O)(O)OCCC[C@@H](NC(=O)CCC(NC(=O)CCCCCNC(=O)CCCCCNC(=O)c1ccc([18F])cc1)C(=O)O)C(=O)O)C(=O)O (some centres unmarked),CWR22Rv1 tumour model,,"host not given, bone","intravenous, 1 h, tumour-bearing",tracer uptake,0.45 %ID/g
C[C@@](O)(C(F)F)[C@H](NC(=O)c1ccc(C#CC#CC2CC2)cc1)C(=O)NO,,,"mouse, plasma","intravenous, 40 mg/kg",clearance,26.9 mL/min/kg
O=C(O)CCC(NP(=O)(O)OCCC[C@@H](NC(=O)CCC(NC(=O)c1ccc([18F])cc1)C(=O)O)C(=O)O)C(=O)O (some centres unmarked),CWR22Rv1 tumour model,,"host not given, bone","intravenous, 1 h, tumour-bearing",tracer uptake,0.46 %ID/g
C[n+]1ccc(Nc2ccc(O)cc2)c2ccc(Cl)cc21,BHK-21 DENV2 replicon cells,,,24 h,CC50,> 100 µM

# Repeated from above:
Structure (SMILES),tested on,assay,system,setting,quantity,value
CC(C)[C@H](NC(=O)CNC(=O)[C@H](CCC(N)=O)NC(=O)[C@H](C)N)C(=O)O,,at least one event,human,"90 mg/kg/h, continuous infusion",subjects with adverse events,66.7%
CC[C@H](C)[C@H](NC(=O)[C@H](CC(=O)O)NC(=O)[C@@H](NC(=O)[C@@H]1CCCN1C(=O)[C@@H](N)CCCNC(=N)N)[C@@H](C)O)C(=O)N[C@@H](CCCCN)C(=O)N[C@H]1CSSC[C@@H]2NC(=O)[C@H](CCCNC(=N)N)NC(=O)CNC(=O)[C@H](CC(N)=O)NC(=O)[C@H]([C@@H](C)O)NC(=O)[C@H](CCCCN)NC(=O)CNC(=O)[C@H](Cc3ccccc3)NC(=O)[C@H](CCCNC(=N)N)NC(=O)[C@H](CO)NC(=O)[C@H](CCCCN)NC(=O)[C@@H]3CSSC[C@@H](C(=O)N[C@@H](Cc4ccccc4)C(=O)O)NC(=O)[C@H](CC(=O)O)NC(=O)[C@H](CSSC[C@H](NC(=O)[C@H](CCC(N)=O)NC(=O)[C@H](Cc4ccc(O)cc4)NC(=O)[C@H](CO)NC(=O)[C@H](CCC(=O)O)NC(=O)[C@H](CO)NC1=O)C(=O)N[C@@H](Cc1ccccc1)C(=O)N1CCC[C@H]1C(=O)N[C@@H](C(C)C)C(=O)N3)NC(=O)[C@H](Cc1ccccc1)NC(=O)CNC(=O)[C@H](CC(N)=O)NC(=O)[C@H](C(C)C)NC2=O,"KCNH2 (Homo sapiens, UniProt Q12809, S631C)","potassium current, two-electrode voltage clamp",Xenopus laevis oocytes,,Hill coefficient,0.8 ± 0.1
